Experimental data collected from several papers.
Every numbered part comes from another study and shows a few of its results, in no order. Several values in a cell are separate wells, animals, samples, runs or records.
Sequence of UniProt P37173 (whole entry, looked up): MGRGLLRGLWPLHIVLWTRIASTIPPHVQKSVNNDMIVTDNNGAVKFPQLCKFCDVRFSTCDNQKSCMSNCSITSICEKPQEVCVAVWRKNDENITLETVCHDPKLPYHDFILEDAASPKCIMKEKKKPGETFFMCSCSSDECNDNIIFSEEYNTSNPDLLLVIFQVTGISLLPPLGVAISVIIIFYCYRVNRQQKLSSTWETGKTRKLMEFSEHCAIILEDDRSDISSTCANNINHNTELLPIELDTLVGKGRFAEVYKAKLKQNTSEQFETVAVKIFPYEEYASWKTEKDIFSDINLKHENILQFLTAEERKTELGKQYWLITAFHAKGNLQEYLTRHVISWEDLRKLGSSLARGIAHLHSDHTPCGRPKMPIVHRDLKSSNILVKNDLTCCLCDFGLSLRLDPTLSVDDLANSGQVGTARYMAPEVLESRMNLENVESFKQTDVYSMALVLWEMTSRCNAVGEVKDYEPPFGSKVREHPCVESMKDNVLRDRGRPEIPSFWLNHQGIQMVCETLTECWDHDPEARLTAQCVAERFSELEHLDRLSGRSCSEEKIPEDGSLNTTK
Sequence of UniProt Q13557 (whole entry, looked up): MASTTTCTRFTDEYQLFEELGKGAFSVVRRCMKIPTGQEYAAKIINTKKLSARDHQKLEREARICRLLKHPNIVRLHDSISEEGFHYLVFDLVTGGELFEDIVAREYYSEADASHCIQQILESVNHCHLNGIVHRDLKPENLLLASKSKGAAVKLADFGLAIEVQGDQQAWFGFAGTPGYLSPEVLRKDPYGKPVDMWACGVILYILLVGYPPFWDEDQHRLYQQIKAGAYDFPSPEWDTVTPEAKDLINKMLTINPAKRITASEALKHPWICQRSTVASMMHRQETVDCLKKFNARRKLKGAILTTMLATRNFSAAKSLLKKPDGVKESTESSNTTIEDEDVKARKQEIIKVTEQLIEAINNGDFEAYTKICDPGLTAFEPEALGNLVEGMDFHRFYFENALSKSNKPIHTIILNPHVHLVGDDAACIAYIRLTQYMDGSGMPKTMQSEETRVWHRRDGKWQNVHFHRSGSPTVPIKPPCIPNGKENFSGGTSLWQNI
Sequence of UniProt P29320 (whole entry, looked up): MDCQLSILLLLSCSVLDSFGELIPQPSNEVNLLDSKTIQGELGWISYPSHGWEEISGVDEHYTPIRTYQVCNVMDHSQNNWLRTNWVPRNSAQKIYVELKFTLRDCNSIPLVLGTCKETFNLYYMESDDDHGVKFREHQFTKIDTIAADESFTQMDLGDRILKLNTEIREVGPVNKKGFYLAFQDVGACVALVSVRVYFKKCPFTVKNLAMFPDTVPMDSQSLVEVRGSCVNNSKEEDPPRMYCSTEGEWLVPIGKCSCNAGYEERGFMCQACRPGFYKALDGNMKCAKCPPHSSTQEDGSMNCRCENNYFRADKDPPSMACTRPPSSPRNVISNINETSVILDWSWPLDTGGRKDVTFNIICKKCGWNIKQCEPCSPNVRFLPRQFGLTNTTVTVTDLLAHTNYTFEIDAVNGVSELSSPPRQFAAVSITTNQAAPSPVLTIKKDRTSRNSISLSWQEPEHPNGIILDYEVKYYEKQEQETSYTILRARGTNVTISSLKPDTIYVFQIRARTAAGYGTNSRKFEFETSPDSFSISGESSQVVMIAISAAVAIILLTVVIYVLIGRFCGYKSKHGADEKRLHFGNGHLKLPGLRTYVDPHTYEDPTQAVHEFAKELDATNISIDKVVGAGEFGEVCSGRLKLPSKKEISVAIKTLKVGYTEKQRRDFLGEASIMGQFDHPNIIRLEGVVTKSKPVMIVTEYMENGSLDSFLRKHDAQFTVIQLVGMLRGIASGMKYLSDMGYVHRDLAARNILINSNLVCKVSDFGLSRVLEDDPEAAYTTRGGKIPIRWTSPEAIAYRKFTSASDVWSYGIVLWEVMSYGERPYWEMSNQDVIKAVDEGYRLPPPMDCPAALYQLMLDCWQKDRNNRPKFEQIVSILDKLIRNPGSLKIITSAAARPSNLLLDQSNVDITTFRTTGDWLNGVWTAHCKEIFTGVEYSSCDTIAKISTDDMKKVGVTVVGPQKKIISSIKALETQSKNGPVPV
Sequence of UniProt P05771 (whole entry, looked up): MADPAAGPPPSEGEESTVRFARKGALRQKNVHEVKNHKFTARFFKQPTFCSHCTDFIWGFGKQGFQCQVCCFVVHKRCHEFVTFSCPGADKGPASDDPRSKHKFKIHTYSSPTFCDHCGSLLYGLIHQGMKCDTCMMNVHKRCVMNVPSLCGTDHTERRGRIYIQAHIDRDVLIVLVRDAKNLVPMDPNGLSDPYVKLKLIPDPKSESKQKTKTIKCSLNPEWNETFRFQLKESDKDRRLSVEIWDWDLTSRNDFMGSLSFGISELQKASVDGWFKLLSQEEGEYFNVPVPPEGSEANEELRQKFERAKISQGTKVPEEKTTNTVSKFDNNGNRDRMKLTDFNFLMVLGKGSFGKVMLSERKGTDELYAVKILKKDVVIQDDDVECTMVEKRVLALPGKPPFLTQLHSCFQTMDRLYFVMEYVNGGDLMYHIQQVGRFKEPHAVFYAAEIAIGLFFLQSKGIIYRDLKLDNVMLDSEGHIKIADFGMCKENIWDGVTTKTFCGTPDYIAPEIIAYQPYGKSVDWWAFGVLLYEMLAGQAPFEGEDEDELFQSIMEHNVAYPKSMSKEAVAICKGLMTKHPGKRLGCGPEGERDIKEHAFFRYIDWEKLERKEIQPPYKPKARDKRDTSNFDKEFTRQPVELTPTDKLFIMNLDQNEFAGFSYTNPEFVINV
Sequence of UniProt Q96RR4 (whole entry, looked up): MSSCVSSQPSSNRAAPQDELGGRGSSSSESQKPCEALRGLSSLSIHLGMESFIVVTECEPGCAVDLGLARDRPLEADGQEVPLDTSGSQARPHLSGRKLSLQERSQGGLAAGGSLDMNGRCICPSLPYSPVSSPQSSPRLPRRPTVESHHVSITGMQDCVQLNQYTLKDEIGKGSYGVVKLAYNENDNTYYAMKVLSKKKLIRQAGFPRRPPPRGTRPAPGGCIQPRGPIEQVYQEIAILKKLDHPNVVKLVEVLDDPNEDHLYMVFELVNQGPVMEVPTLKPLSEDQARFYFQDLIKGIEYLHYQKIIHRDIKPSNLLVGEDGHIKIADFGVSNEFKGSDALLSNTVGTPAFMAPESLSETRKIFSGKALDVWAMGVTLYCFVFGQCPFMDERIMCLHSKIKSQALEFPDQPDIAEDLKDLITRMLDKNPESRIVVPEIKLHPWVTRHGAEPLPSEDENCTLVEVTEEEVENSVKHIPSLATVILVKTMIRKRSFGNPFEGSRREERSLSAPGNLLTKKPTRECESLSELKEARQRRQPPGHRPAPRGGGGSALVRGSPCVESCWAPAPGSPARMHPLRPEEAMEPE
Sequence of UniProt P36897 (whole entry, looked up): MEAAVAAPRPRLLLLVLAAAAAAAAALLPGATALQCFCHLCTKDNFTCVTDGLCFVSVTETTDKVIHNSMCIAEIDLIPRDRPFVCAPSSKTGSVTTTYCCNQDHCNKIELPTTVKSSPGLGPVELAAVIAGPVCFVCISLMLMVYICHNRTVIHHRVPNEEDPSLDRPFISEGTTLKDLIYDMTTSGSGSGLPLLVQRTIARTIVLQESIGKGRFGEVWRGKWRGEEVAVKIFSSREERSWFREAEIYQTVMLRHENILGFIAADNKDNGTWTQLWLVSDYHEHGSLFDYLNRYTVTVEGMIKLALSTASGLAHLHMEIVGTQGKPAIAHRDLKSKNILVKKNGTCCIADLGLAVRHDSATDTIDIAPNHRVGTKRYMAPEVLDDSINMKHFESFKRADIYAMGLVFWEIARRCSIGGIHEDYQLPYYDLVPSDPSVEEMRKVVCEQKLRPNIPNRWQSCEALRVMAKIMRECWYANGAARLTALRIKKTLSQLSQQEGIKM
Sequence of UniProt Q08345 (whole entry, looked up): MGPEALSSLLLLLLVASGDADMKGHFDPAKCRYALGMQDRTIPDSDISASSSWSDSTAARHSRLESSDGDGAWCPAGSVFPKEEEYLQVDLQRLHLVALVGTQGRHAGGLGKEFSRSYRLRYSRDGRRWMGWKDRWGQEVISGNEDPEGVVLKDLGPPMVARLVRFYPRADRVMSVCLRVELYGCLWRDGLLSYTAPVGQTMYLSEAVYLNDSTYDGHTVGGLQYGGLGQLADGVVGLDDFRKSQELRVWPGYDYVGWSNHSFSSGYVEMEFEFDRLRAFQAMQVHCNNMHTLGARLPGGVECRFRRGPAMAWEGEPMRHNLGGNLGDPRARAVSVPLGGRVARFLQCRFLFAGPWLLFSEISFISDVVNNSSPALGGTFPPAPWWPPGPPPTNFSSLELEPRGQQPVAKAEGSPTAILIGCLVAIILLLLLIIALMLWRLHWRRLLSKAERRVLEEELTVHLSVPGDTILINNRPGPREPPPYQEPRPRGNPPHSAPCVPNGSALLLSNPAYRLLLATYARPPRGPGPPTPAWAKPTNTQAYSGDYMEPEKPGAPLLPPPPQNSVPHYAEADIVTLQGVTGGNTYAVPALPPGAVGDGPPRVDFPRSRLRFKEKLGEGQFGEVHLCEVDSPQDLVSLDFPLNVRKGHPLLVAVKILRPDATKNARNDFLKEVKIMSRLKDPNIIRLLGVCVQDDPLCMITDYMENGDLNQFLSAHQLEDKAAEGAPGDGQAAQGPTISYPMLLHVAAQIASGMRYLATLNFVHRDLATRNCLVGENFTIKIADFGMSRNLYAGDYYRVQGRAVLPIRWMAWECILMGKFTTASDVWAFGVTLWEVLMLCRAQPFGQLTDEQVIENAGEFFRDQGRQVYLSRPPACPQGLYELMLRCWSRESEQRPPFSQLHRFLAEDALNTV

Set 1
SMILES: c1ccc2c(-c3ccncc3)c[nH]c2c1
Observed: enzyme activity
Action: inhibitor
Concentration: 0.5 µM
Reference: control
| target | remaining activity [%] |
| --- | --- |
| Protein kinase C beta type, isoform beta-I (PRKCB, Homo sapiens, UniProt P05771) | 95.1 |
| Mitogen-activated protein kinase 9 (MAPK9, Homo sapiens, UniProt P45984) | 103 |
| Serine/threonine-protein kinase Nek2 (NEK2, Homo sapiens, UniProt P51955) | 106 |
| Inhibitor of nuclear factor kappa-B kinase subunit epsilon (IKBKE, Homo sapiens, UniProt Q14164) | 96.4 |
| cAMP-dependent protein kinase catalytic subunit alpha (PRKACA, Homo sapiens, UniProt P17612) | 91.6 |
| Tyrosine-protein kinase Lyn, isoform B (LYN, Homo sapiens, UniProt P07948) | 100 |
| TGF-beta receptor type-1 (TGFBR1, Homo sapiens, UniProt P36897) | 103 |
| Calcium/calmodulin-dependent protein kinase kinase 2 (CAMKK2, Homo sapiens, UniProt Q96RR4) | 113 |
| Death-associated protein kinase 2 (DAPK2, Homo sapiens, UniProt Q9UIK4) | 108 |
| Mitogen-activated protein kinase kinase kinase 3 (MAP3K3, Homo sapiens, UniProt Q99759) | 103 |
| Serine/threonine-protein kinase 10 (STK10, Homo sapiens, UniProt O94804) | 93.7 |
| cGMP-dependent protein kinase 1, isoform beta (PRKG1, Homo sapiens, UniProt Q13976) | 77.7 |
| STE20/SPS1-related proline-alanine-rich protein kinase (STK39, Homo sapiens, UniProt Q9UEW8) | 99.8 |
| Inhibitor of nuclear factor kappa-B kinase subunit beta (IKBKB, Homo sapiens, UniProt O14920) | 102 |
| TGF-beta receptor type-2 (TGFBR2, Homo sapiens, UniProt P37173) | 119 |
| Protein kinase C alpha type (PRKCA, Homo sapiens, UniProt P17252) | 97.4 |
| Cyclin-dependent kinase 5, with p25 (CDK5, Homo sapiens, UniProt Q00535) | 92 |
| Cyclin-dependent kinase 4, with cyclin D1 (CDK4, Homo sapiens, UniProt P11802) | 112 |
| G protein-coupled receptor kinase 3 (GRK3, Homo sapiens, UniProt P35626) | 95.4 |
| Calcium/calmodulin-dependent protein kinase type II subunit delta (CAMK2D, Homo sapiens, UniProt Q13557) | 103 |
| Serine/threonine-protein kinase Chk2 (CHEK2, Homo sapiens, UniProt O96017) | 99.3 |
| Serine/threonine-protein kinase STK11 (STK11, Homo sapiens, UniProt Q15831) | 90.7 |
| Death-associated protein kinase 1 (DAPK1, Homo sapiens, UniProt P53355) | 97.7 |
| Serine/threonine-protein kinase OSR1 (OXSR1, Homo sapiens, UniProt O95747) | 97.2 |

Set 2
Cell line: mouse MPNST tumor cells
Method: high-content nuclear imaging
Refers to: cell number
Concentration: 10 µM
Time: 12 h
Setting: mean of 2 replicates
Reference: plate mean
Direction: higher = more cells
| Compound | nuclei count |
| --- | --- |
| O=C1Cc2c([nH]c3ccc(Br)cc23)-c2ccccc2N1 | 1.16 z-score |
| OC(Cn1cncn1)(Cn1cncn1)c1ccc(F)cc1F | 1.09 z-score |
| CCC(=O)[C@@]1(C)[C@H](C)C[C@H]2[C@@H]3CCC4=CC(=O)C=C[C@]4(C)[C@H]3[C@@H](O)C[C@@]21C | 1.62 z-score |
| Cc1cc(N2CCOCC2)cc2[nH]c(-c3c(NCC(O)c4cccc(Cl)c4)cc[nH]c3=O)nc12 (stereo not shown) | -1.45 z-score |
| COc1cnc(NS(=O)(=O)c2ccc(N)cc2)nc1 | 0.794 z-score and 1.5 z-score |

Set 3
SMILES: COc1ccc2[nH]c3c4[nH]c5ccc(OC)cc5c4c4c(c3c2c1)C(=O)NC4=O
Observed: binding
Concentration: 1 µM
| target | method | remaining binding |
| --- | --- | --- |
| Epithelial discoidin domain-containing receptor 1 (DDR1, Homo sapiens, UniProt Q08345) | competition with immobilised ligand | 77% |
| 1-phosphatidylinositol 3-phosphate 5-kinase (PIKFYVE, Homo sapiens, UniProt Q9Y2I7) |  | 0% |
| Receptor-type tyrosine-protein kinase FLT3 (FLT3, Homo sapiens, UniProt P36888) | competition with immobilised ligand | 28% |
| MAP kinase-interacting serine/threonine-protein kinase 1 (MKNK1, Homo sapiens, UniProt Q9BUB5) | competition with immobilised ligand | 92% |
| Ephrin type-A receptor 3 (EPHA3, Homo sapiens, UniProt P29320) | competition with immobilised ligand | 86% |

Set 4
Target: Diamine acetyltransferase 1 (Homo sapiens, UniProt P21673)
Action: inhibitor
Concentration: 10 µM
Reference: control
Target sequence (P21673 1-171): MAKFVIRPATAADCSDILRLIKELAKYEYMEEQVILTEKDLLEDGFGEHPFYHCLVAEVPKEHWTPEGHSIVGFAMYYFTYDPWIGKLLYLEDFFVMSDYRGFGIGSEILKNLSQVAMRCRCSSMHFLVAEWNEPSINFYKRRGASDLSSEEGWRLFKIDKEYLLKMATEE
| Compound | remaining activity [%] |
| --- | --- |
| CC(=O)OCC1=C[C@@H]2OC(=O)C3=CO[C@@H](O[C@@H]4O[C@H](CO)[C@@H](O)[C@H](O)[C@H]4O)[C@H]1[C@@H]32 | 85.1 |
| COC(=O)C1=COC2OC3CC1C2C(C)O3 (stereo not shown) | 100 |
| CC(=O)O[C@@H]1[C@@H](O)[C@H](O[C@H]2CC[C@]34C[C@]35CC[C@]3(C)[C@@H]([C@@]6(C)CC[C@@H](C(C)(C)O)O6)[C@@H](O)C[C@@]3(C)[C@@H]5C[C@H](O[C@@H]3O[C@H](CO)[C@@H](O)[C@H](O)[C@H]3O)[C@H]4C2(C)C)OC[C@H]1O | 108 |
| CCCCCCCCCCCCCCCC(=O)O | 87 |

Set 5
SMILES: CC(C)(C(=O)O)[C@H](NC(=O)Cc1cccc(I)c1)c1ccc2oc(=O)[nH]c2c1
Method: Incucyte 3D growth
Concentration: 30 µM
Direction: higher = more growth
| cell line | time | spheroid area |
| --- | --- | --- |
| A375 | 36 h | 1.68e+07 a.u. and 1.7e+07 a.u. and 1.28e+07 a.u. and 2.06e+07 a.u. and 2.21e+07 a.u. |
| MEL-JUSO | 30.52 h | 1.04e+07 a.u. and 9.65e+06 a.u. and 1.27e+07 a.u. and 1.15e+07 a.u. and 7.7e+06 a.u. and 1.05e+07 a.u. |
| NCI-H1437 | 78 h | 3.15e+07 a.u. and 2.95e+07 a.u. and 2.42e+07 a.u. and 2.56e+07 a.u. and 2.97e+07 a.u. |
| PC-9 | 174 h | 1.59e+09 a.u. and 1.51e+09 a.u. and 1.52e+09 a.u. and 1.49e+09 a.u. and 1.6e+09 a.u. |
| KP-4 | 222 h | 3.96e+07 a.u. and 1.99e+07 a.u. and 3.86e+07 a.u. and 4.24e+07 a.u. and 4.17e+07 a.u. and 6.55e+07 a.u. |
| MEL-JUSO | 210.52 h | 1.59e+07 a.u. and 1.65e+07 a.u. and 1.8e+07 a.u. and 2.45e+07 a.u. and 2.06e+07 a.u. and 1.53e+07 a.u. |
| KP-4 | 144 h | 2.07e+07 a.u. and 1.99e+07 a.u. and 2.27e+07 a.u. and 1.61e+07 a.u. and 2.22e+07 a.u. and 2.06e+07 a.u. |

Set 6
Target: Translocator protein (Tspo, Rattus norvegicus, UniProt P16257)
Sequence of UniProt P16257 (whole entry, looked up): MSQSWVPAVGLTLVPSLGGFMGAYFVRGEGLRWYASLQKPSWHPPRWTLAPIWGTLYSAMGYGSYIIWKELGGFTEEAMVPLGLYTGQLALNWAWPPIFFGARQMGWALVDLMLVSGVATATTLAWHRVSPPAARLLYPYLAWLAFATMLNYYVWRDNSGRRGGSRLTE
Observed: radioligand binding
Method: radioligand displacement
Concentration: 10 µM
| SMILES | inhibition [%] |
| --- | --- |
| Cc1nc(Cc2cccc(C(F)(F)F)c2)sc1-c1ccc(C(N)=O)nc1 | 4.9 |
| Cc1ccc2nc(CNCCCOc3ccccc3)cc(O)c2c1 | 8.58 |
| O=C(NCc1ncc(C(F)(F)F)cc1Cl)c1ccc2c(c1)C1(CCS(=O)(=O)CC1)[C@@H](C1CC1)N2S(=O)(=O)c1ccc(F)cc1 | -27.9 |
| Cc1nc(N2CC[C@@H](O)C2)ncc1-c1cc(C(F)(F)F)cc2[nH]ncc12 | 1.57 |
| C[C@H](NC(=O)c1cnc2n1[C@](C)(Cc1ccc(C#N)cc1)C(=O)N2c1cc(Cl)c(F)c(Cl)c1)C(=O)NC1(c2ccccn2)CC1 | 13.1 |
| CCCCN(CCCC)C(=O)CN1C[C@H](c2cc(OC)c3c(c2)OCO3)[C@@H](C(=O)O)[C@@H]1CC(C)(C)CCC | 43.2 |
| O=C(O)c1cc(-c2ccc(C3CCNCC3)cc2)c2ccc(-c3ccc(C(F)(F)F)cc3)cc2c1 | -29.8 |

Some of these lines once more (set 1):
| target | remaining activity [%] |
| --- | --- |
| Death-associated protein kinase 2 (DAPK2, Homo sapiens, UniProt Q9UIK4) | 108 |
| Mitogen-activated protein kinase kinase kinase 3 (MAP3K3, Homo sapiens, UniProt Q99759) | 103 |
| Serine/threonine-protein kinase 10 (STK10, Homo sapiens, UniProt O94804) | 93.7 |
| cGMP-dependent protein kinase 1, isoform beta (PRKG1, Homo sapiens, UniProt Q13976) | 77.7 |
| STE20/SPS1-related proline-alanine-rich protein kinase (STK39, Homo sapiens, UniProt Q9UEW8) | 99.8 |
| Inhibitor of nuclear factor kappa-B kinase subunit beta (IKBKB, Homo sapiens, UniProt O14920) | 102 |
| TGF-beta receptor type-2 (TGFBR2, Homo sapiens, UniProt P37173) | 119 |
